Published values collected from several papers.
Protocols differ between the studies behind these lines. Several values in a cell are separate wells, animals, samples, runs or records. ± marks the error that the study gave.

COc1cccc(Nc2nc(NCC3CCCO3)c3ccccc3n2)c1.Cl (stereo not shown) — inhibition (Renilla luciferase reporter mRNA; in vitro translation, inhibitor; Trypanosoma cruzi translation extract; 30 µM): 52.2%
CC(Nc1nc(N2CCCC2)nc2ccccc12)c1ccccc1 (stereo not shown) — cells with nuclear reporter (transportin-1/2; FUS nuclear import, high content imaging; HeLa Kyoto reporter; 5 µM, 2 h): 95.1%
O=C(NN=Cc1ccc(C[n+]2ccccc2)cc1)c1ccc2ccc3ccc(C(=O)NN=Cc4ccc(C[n+]5ccccc5)cc4)nc3c2n1.[Br-].[Br-] — ΔTm (myc22 MYC G4-DNA parallel; FRET melting; 1 µM, K1 buffer, DNA 0.2 µM): 30.5 ± 0.3 °C
Cl.Fc1ccc(Nc2nc(NCC3CCCO3)c3ccccc3n2)cc1 (stereo not shown) — inhibition (Renilla luciferase reporter mRNA; in vitro translation, inhibitor; Trypanosoma cruzi translation extract; 30 µM): 49.7%
C[n+]1cccc2cc(C=NNC(=O)c3ccc4ccc5ccc(C(=O)NN=Cc6ccc7c(ccc[n+]7C)c6)nc5c4n3)ccc21.[I-].[I-] — ΔTm (MYC parallel G4 DNA; FRET melting; 1 µM, DNA 0.2 µM, together with: duplex DNA competitor 10 µM): 15.3 ± 1 °C
c1coc(-c2n[nH]cc2-c2ccnc3ccccc23)c1 — log2 fold change (KSP1 (Candida albicans); kinase binding, MIB/MS competition; Candida albicans lysate; 10 µM; baseline: DMSO): 0.02
O=C(O)c1ccc2c(c1)nc(Nc1ccccc1Cl)c1ncncc12 — number of kinases inhibited (DYRK and HIPK kinases; enzyme activity, inhibitor, eight-kinase enzymatic panel; 1 µM, percent of control below 10): 2
Oc1ccccc1-c1n[nH]cc1-c1ccnc2ccccc12 — log2 fold change (orf19.4518 Candida albicans; kinase binding, MIB/MS competition; Candida albicans lysate; 10 µM; baseline: DMSO): 0.49
Cl.OCCNc1nc(Nc2ccccc2)nc2ccccc12 — inhibition (Renilla luciferase reporter mRNA; in vitro translation, inhibitor; Trypanosoma cruzi translation extract; 10 µM): 63.1%
CCNC(=O)/C=C/c1cccc(Br)c1 — L-leucine uptake (endogenous leucine transporters hamster; inhibitor, L-[14C]leucine uptake; CHO-BC cells; 100 µM, sodium-free): 38.1 nmol/6 min/mg protein and 39.2 nmol/6 min/mg protein and 36.7 nmol/6 min/mg protein
O=C(O)c1ccc2c(c1)nc(NCc1ccccc1)c1ncncc12 — number of kinases inhibited (DYRK and HIPK kinases; enzyme activity, inhibitor, eight-kinase enzymatic panel; 1 µM, percent of control below 10): 0
O=Cc1ccccc1C(=O)O — inhibition (THP-1; pyroptotic LDH release; 2 µM, 40 min, together with: LPS then nigericin): 5.16%
O=C(O)c1ccc2c(c1)nc(Nc1ccccc1)c1ccncc12 — number of kinases inhibited (DYRK and HIPK kinases; enzyme activity, inhibitor, eight-kinase enzymatic panel; 1 µM, percent of control below 10): 3
O=C(O)/C=C/c1ccc(Cn2ccnc2)cc1 — inhibition (THP-1; pyroptotic LDH release; 2 µM, 40 min, together with: LPS then nigericin): -12.6%
Fc1ccccc1Nc1nc(NCC2CCCO2)c2ccccc2n1 (stereo not shown) — inhibition (Renilla luciferase reporter mRNA; in vitro translation, inhibitor; Trypanosoma cruzi translation extract; 10 µM): 8.8%
O=C(O)c1ccc2c(c1)nc(Nc1ccc(Cl)cc1)c1ncncc12 — number of kinases inhibited (DYRK and HIPK kinases; enzyme activity, inhibitor, eight-kinase enzymatic panel; 1 µM, percent of control below 10): 5

A few entries again:
O=C(NN=Cc1ccc(C[n+]2ccccc2)cc1)c1ccc2ccc3ccc(C(=O)NN=Cc4ccc(C[n+]5ccccc5)cc4)nc3c2n1.[Br-].[Br-] — ΔTm (myc22 MYC G4-DNA parallel; FRET melting; 1 µM, K1 buffer, DNA 0.2 µM): 30.5 ± 0.3 °C
Cl.Fc1ccc(Nc2nc(NCC3CCCO3)c3ccccc3n2)cc1 (stereo not shown) — inhibition (Renilla luciferase reporter mRNA; in vitro translation, inhibitor; Trypanosoma cruzi translation extract; 30 µM): 49.7%
